Measurements gathered from unrelated publications.
Numbered parts are unrelated; each lists some results of a single study.
Sequence of UniProt P43250 (whole entry, looked up): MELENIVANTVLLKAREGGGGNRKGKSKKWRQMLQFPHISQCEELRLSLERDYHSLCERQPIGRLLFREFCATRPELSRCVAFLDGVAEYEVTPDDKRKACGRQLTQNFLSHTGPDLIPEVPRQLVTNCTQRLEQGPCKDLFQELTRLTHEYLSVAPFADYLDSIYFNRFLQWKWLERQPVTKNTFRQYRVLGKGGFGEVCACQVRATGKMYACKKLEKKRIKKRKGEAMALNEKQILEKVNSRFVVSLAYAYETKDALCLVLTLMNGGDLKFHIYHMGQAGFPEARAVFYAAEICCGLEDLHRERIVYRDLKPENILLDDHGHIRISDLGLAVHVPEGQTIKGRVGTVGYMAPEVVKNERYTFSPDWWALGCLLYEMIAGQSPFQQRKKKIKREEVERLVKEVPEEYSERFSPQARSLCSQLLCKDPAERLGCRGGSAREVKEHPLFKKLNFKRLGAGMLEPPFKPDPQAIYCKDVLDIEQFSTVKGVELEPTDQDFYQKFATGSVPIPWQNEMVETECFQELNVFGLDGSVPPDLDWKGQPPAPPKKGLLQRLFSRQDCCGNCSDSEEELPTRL

Series 1
Target: RNA binding protein fox-1 homolog 2, RRM domain, GST-SBP tag (RBFOX2, Homo sapiens, UniProt O43251-10, residues 100-194)
Method: RNA Bind-n-Seq
Molecule type: RNA
Sample: in vitro
Concentration: 365 nM
Setting: natural RNA segment, single round, ends assumed
Relative to: no-protein control
Reading: higher = stronger binding
All sequences stand within: GGGAGUUCUACAGUCCGACGAUC … UGGAAUUCUCGGGUGCCAA
Residues (chain): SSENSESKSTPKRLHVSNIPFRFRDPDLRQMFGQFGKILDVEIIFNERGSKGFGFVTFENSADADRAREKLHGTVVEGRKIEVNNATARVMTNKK
Strand	RBNS enrichment (R)
ACACAUUUUAGGGAUAAGUAAUCAAAACCAUGAACUUUUAUUUGACUUCCCACCAAUGUCUAAACUAUUGUAAAAUAGUAUGAUUCUUUAGCCGUGUUUUGACUGUCUAG	0.269
GCUCACUCCCCAAGCUUUAUGGAGCUUCCAGCAACAGCCAUGAACUUGAGGUUCCUUGAAUUUGCGAGGUGUGGAAAGACUACUUGACUGUCUGUCCAGCUUAGCUGUUA	0.346
UAAAGAAAUAGUUUUCUUAGAUAUUUGUCACAUACUACUUAAAUAAAAUUCUCUUGGGUUUAAUCUUUCUUGAGCCUUUCUCAGAAGUUUGGGCUUAAAUAUGCUCCAAA	0.648
UCAUUCAAAUCUUGGAUUUUUUUUUUUCCCUAAGAGAUUCUCUUUUUAGGGGGAAUGGGAAACGGACACCUCAUAAAGGGUUCAAAGAUCAUCAAUUUUUCUGACUUUUU	0.41
UAAAAAGUCAUUUUAGAUGCCACCCAUUGACUUUGCCACAUAGCUGAACUGUGUUUACUGGAAAAAUUCAGAGGCCUAAAGUUUAAAAUAAAAUUUACUUCUGAUGUUUU	0.457
CAAAAAAAAAAAAACCCAUUUGCAGAGGCAGUUUUGCCAACACAAGGGCUCUUUCAAGCCGACUUUCACAAAGAGAGCCGGACUUGUUAGUUGGCUUCUGUCUCUUUAGA	0.577
AGCAGGCCUGCGUUGCCAGGGAGUACCCCAGCCCCUUUCCCUUCUUGGGCUGCUACCGCCGCCACCACCGUCACCACCAUCUGUCCAGUGCUACUGUCUGUGCCCUCCUA	0.511
CUCAGUAGCAGGACCUGCCCCGAGCCCCCUGCUCCUUGCCCCUCUGUGAGGAGUUACGGAGAGGGCUUUGUCUCUAGAGCAGAAGAGAAUGAUGGGACGGCCUGAUGCUG	1.73

Series 2
Target: Histone acetyltransferase KAT6A, winged helix 1, GST fusion (KAT6A, Homo sapiens, UniProt Q92794, residues 1-85)
Method: protein binding microarray
Molecule type: double-stranded DNA, one strand shown
Sample: in vitro
Concentration: not given
Setting: 8-mer, flanks averaged, mean of 2 arrays, mostly near background
Relative to: not given
Reading: higher = stronger binding
Target sequence (chain): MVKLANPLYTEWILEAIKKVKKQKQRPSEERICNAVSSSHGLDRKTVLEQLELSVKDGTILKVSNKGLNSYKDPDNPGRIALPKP
Strand	E-score
AGACATAG	-0.0104
ACTTTAGG	-0.164
GGTAAGTA	0.049
ATCTCCGG	0.123
ATCACTCC	-0.152
CCCGTGGC	0.318
AACCCCTT	-0.0367
AGACAGAC	0.0206

Series 3
Target: TAR DNA-binding protein 43, full length, His tag (TARDBP, Homo sapiens, UniProt Q13148, residues 1-414)
Method: RNA Bind-n-Seq
Molecule type: RNA
Sample: in vitro
Concentration: 20 nM
Setting: 6-mer, flanks averaged, single round
Added: 150 mM LiCl
Relative to: input library
Reading: higher = stronger binding
Strand	6-mer enrichment (R)
UUUCCA	0.955
GCUGGU	1.06
AGCCCA	0.924
UCUCGU	0.904
GUGGGC	1.25
CUUCGA	0.802
CUGGAU	0.892
GUAAAC	0.857

Mixed results
SMILES	target	observed	action	concentration	relative to	endpoint	value
CCCC(=O)Oc1ccc2[nH]c(C(=O)c3cc4ccccc4[nH]3)cc2c1	G protein-coupled receptor kinase 6 (GRK6, Homo sapiens, UniProt P43250)	enzyme activity	inhibitor	0.5 µM	control	remaining activity	95.8%
